# Measurements of several laboratories.
# Protocols differ between the studies behind these lines. Numbers after ± are the reported error.
Substance,target,test,system,conditions,how to read,endpoint,value
U-69593,"opioid receptors, mouse","G protein activation, agonist",C57BL/6 wild-type mouse striatal membranes,20 µM,baseline: vehicle,fold stimulation,1.32 ± 0.02 fold
methylarsonous diiodide,"pyruvate dehydrogenase complex, porcine","enzyme activity, inhibitor",,"1 h, 1 h preincubation",,IC50,92.1 nM
pralidoxime iodide,"butyrylcholinesterase (pig), DFP-inhibited",reactivator,,,baseline: kr over kr acetylcholinesterase (human),reactivation rate ratio,50 fold
O=C(O)C(=O)Nc1ccc(C#Cc2ccc(C(F)(F)F)cc2Cl)cc1,mPTPB (Mycobacterium tuberculosis),"inhibitor, western blot, item: phospho-AKT",RAW264.7 expressing HA-mPTPB,"5 to 40 nM, 2 h, together with: IFN-γ",,AKT phosphorylation,decreased
CC[C@H](C)[C@@H]1NC(=O)[C@H](CCC(=O)O)NC(=O)[C@@H]2CCCN2C(=O)[C@H](Cc2c[nH]cn2)NC(=O)[C@H](CC(=O)O)NC(=O)[C@H](Cc2ccc(O)cc2)NC(=O)[C@H](CC(N)=O)NC(=O)[C@@H]2CSSC[C@@H]3NC(=O)CNC(=O)CNC(=O)CNC(=O)[C@H](C)NC(=O)[C@H](C)NC(=O)CNC(=O)CNC(=O)[C@H](CSSC[C@H](NC3=O)C(=O)N[C@@H](CO)C(=O)N[C@@H](CC(=O)O)C(=O)N3CCC[C@H]3C(=O)N[C@@H](CCCNC(=N)N)C(=O)N2)NC1=O,Cav2.3c human Y1765F,Ba2+ current,,200 nM,,inhibition,15 ± 3.2%
CC(=O)N1C[C@@H](COP(=O)(N(C)C)N2C[C@@H](COP(=O)(N(C)C)N3C[C@@H](COP(=O)(N(C)C)N4C[C@@H](COP(=O)(N(C)C)N5C[C@@H](COP(=O)(N(C)C)N6C[C@@H](COP(=O)(N(C)C)N7C[C@@H](COP(=O)(N(C)C)N8C[C@@H](COP(=O)(N(C)C)N9C[C@@H](COP(=O)(N(C)C)N%10C[C@@H](COP(=O)(N(C)C)N%11C[C@@H](COP(=O)(N(C)C)N%12C[C@@H](COP(=O)(N(C)C)N%13C[C@@H](COP(=O)(N(C)C)N%14C[C@@H](COP(=O)(N(C)C)N%15C[C@@H](COP(=O)(N(C)C)N%16C[C@@H](COP(=O)(N(C)C)N%17C[C@@H](COP(=O)(N(C)C)N%18C[C@@H](COP(=O)(N(C)C)N%19C[C@@H](COP(=O)(N(C)C)N%20C[C@@H](COP(=O)(N(C)C)N%21C[C@@H](COP(=O)(N(C)C)N%22C[C@@H](COP(=O)(N(C)C)N%23C[C@@H](COP(=O)(N(C)C)N%24CCN(C(=O)CCCN%25C(=O)CC(SC[C@H](NC(=O)[C@H](CCCNC(=N)N)NC(=O)[C@H](CCCNC(=N)N)NC(=O)[C@H](CCCNC(=N)N)NC(=O)[C@H](CCCNC(=N)N)NC(=O)[C@H](Cc%26ccccc%26)NC(=O)[C@H](Cc%26ccccc%26)NC(=O)[C@H](CCCNC(=N)N)NC(=O)[C@H](CCCNC(=N)N)NC(=O)[C@H](CCCNC(=N)N)NC(=O)[C@H](CCCNC(=N)N)NC(=O)[C@@H](N)CCCNC(=N)N)C(N)=O)C%25=O)CC%24)O[C@@H](n%24cnc%25c(=O)[nH]c(N)nc%25%24)C%23)O[C@@H](n%23cc(C)c(=O)[nH]c%23=O)C%22)O[C@@H](n%22ccc(N)nc%22=O)C%21)O[C@@H](n%21cnc%22c(N)ncnc%22%21)C%20)O[C@@H](n%20cc(C)c(=O)[nH]c%20=O)C%19)O[C@@H](n%19ccc(N)nc%19=O)C%18)O[C@@H](n%18cc(C)c(=O)[nH]c%18=O)C%17)O[C@@H](n%17cc(C)c(=O)[nH]c%17=O)C%16)O[C@@H](n%16cnc%17c(=O)[nH]c(N)nc%17%16)C%15)O[C@@H](n%15ccc(N)nc%15=O)C%14)O[C@@H](n%14cnc%15c(=O)[nH]c(N)nc%15%14)C%13)O[C@@H](n%13ccc(N)nc%13=O)C%12)O[C@@H](n%12ccc(N)nc%12=O)C%11)O[C@@H](n%11cnc%12c(N)ncnc%12%11)C%10)O[C@@H](n%10cc(C)c(=O)[nH]c%10=O)C9)O[C@@H](n9cc(C)c(=O)[nH]c9=O)C8)O[C@@H](n8cc(C)c(=O)[nH]c8=O)C7)O[C@@H](n7cc(C)c(=O)[nH]c7=O)C6)O[C@@H](n6cc(C)c(=O)[nH]c6=O)C5)O[C@@H](n5cnc6c(=O)[nH]c(N)nc65)C4)O[C@@H](n4cc(C)c(=O)[nH]c4=O)C3)O[C@@H](n3cnc4c(=O)[nH]c(N)nc43)C2)O[C@@H](n2cnc3c(=O)[nH]c(N)nc32)C1 (some centres unmarked),ORF50 leader-luciferase RNA,"luciferase activity, in vitro translation",Kaposi's sarcoma-associated herpesvirus,300 nM,baseline: mock-treated,inhibition,98%
diisopropyl fluorophosphate,bovine lens protease,"enzyme activity, inhibitor",lens protease-rich fraction,"1 mM, 30 min preincubation, 37 °C, together with: MCA-62-70 substrate 5 µg",baseline: untreated,remaining activity,78%
C[C@H]1COc2c(N3CCN(C)CC3)c(F)cc3c(=O)c(C(=O)O)cn1c23,Staphylococcus aureus topoisomerase IV GrlA S81F,DNA cleavage,,,,CC3,38.8 µM
CC(C)[C@H]1CC[C@@H](N2CCC(n3c(CO)cc4ccccc43)CC2)CC1,L-type calcium channel,radioligand binding,,10 µM,,inhibition,73%
CCC(C)C1NC(=O)/C(=C(/C)O)C1=O (centres unmarked),spinach plasma membrane H+-ATPase,enzyme activity,,"20 µM, 10 min, without fusicoccin or 14-3-3",,specific activity,10.1 Pi/mg protein/min
c1ccc(Nc2cccc3ccccc23)cc1,Manis javanica OBP3 Y87A,"binding, fluorescence binding",,together with: 1-NPN probe,,Kd,790 ± 270 nM
"13,19-didesmethyl spirolide C",nicotinic acetylcholine receptor (Torpedo marmorata),binding,,together with: biotin-α-bungarotoxin,,Hill slope,1.33 ± 0.23
Cc1c(N2CC[C@@H](CN)C2)c(F)cc2c(=O)n(N)c(=O)n(C3CC3)c12,Staphylococcus aureus topoisomerase IV GrlA S81F,DNA cleavage complex stability,,20 µM,baseline: wild type,decrease in cleavage complex half-life,≤ 30%
U-69593,human kappa opioid receptor,"G protein over ERK1/2, operational model",,unit not given,baseline: reference agonist,ΔΔlog(τ/KA),0
